# Measured values of several laboratories.
# Each line is one published result; not all experiments were run side by side. ± marks the error that the study gave.
# UniProt Q13043, sequence (whole entry, looked up): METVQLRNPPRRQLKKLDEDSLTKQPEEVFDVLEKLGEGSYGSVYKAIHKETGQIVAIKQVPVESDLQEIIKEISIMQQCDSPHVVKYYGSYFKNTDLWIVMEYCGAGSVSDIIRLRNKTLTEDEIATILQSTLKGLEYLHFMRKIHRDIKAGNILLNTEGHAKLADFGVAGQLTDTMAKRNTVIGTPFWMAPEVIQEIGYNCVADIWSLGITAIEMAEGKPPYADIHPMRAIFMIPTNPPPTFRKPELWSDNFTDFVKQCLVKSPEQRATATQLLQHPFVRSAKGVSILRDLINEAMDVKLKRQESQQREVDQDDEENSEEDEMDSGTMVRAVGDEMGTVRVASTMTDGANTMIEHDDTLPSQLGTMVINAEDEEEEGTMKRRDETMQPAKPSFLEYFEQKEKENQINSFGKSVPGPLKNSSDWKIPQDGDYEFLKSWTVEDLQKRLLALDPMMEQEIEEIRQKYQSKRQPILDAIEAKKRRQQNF
SMILES,target or system,test,system,setting,how to read,endpoint,value
CC[C@H](C)[C@H](NC(=O)[C@H](CCCNC(=N)N)NC(=O)[C@H](CCCCN)NC(=O)[C@H](Cc1ccc(O)cc1)NC(=O)[C@H](CC(=O)O)NC(=O)[C@H](C)NC(=O)CNC(=O)CCOCCOCCOCCNC(=O)CN1CCN(CC(=O)O)CCN(CC(=O)O)CCN(CC(=O)O)CC1)C(=O)N[C@H](C(=O)N[C@@H](CC(C)C)C(=O)N[C@@H](CCCCN)C(=O)N[C@H](C(=O)N[C@@H](CC(N)=O)C(N)=O)C(C)C)[C@@H](C)O [copper-64 labelled],,ex vivo gamma counting,"C57BL/6J male mice, B16-F10 tumour, heart","intravenous, 1.85 MBq, 20 min",,tissue uptake,0.986 ± 0.489 %ID/g
CN(C)[C@H]1C[C@@]23CC[C@@]4(O2)C(=CC[C@]2(C)[C@@H](c5ccc6ccncc6c5)CC[C@H]24)C=C3[C@@H](O)[C@@H]1O,"Serine/threonine-protein kinase 4 (STK4, Homo sapiens, UniProt Q13043)","ATP probe labelling, inhibitor, KiNativ profiling",,0.1 µM,,inhibition,6.4%
CN1Cc2cc(Cl)ccc2-n2c(nnc2C2CCN(c3cccc([18F])n3)CC2)C1,,,"C57BL/6 mouse male, brain","intravenous, dose not given, 5 min, added: blocking agent 10 mg/kg",,tissue uptake,2.83 ± 0.95 %ID/g
O=C1NC2(CC2)COc2ncc(F)cc2[C@H]2COCCN2c2ccn3ncc1c3n2,,,"Sprague-Dawley rat, female, plasma","oral, 5 mg/kg/day, end of recovery, 4-week repeated-dose toxicity",,prothrombin time,8.2 s
CC[C@H](C)[C@H](NC(=O)[C@H](CCCCN)NC(=O)CNC(=O)[C@H](CC(C)C)NC(=O)[C@H](Cc1ccccc1)NC(=O)[C@H](CCCCN)NC(=O)[C@H](CO)NC(=O)[C@H](Cc1ccccc1)NC(=O)[C@H](Cc1c[nH]c2ccccc12)NC(=O)[C@H](CCC(N)=O)NC(=O)[C@@H](NC(=O)[C@H](Cc1ccccc1)NC(=O)CCCCCNC(=O)CN1CCN(CC(=O)O)CCN(CC(=O)O)CCN(CC(=O)O)CC1)C(C)C)C(=O)N[C@@H](CCC(=O)O)C(=O)N1CCC[C@H]1C(=O)N[C@@H](CC(=O)O)C(=O)N[C@H](C(=O)N[C@@H](CO)C(=O)N[C@@H](CCC(N)=O)C(=O)N[C@H](C(=O)N[C@@H](CCC(N)=O)C(=O)N[C@@H](CC(=O)O)C(=O)N1CCC[C@H]1C(=O)N[C@@H](CC(N)=O)C(=O)N[C@@H](CC(=O)O)C(=O)N[C@@H](CCC(N)=O)C(=O)N[C@@H](Cc1ccc(O)cc1)C(=O)N[C@@H](CCC(=O)O)C(=O)N1CCC[C@H]1C(=O)N[C@@H](Cc1ccccc1)C(=O)O)C(C)C)C(C)C [copper-64 labelled],,,"BALB/c mice, male, CT26 tumour-bearing, lung","2 h, anti-PD1 plus anti-CTLA4 treated",,tissue uptake,3.76 ± 2.2 %ID/g
COc1ccccc1-c1n[nH]c2nc(NC3CCN(C(=O)Cc4ccc(F)cc4F)CC3)ncc12,,"bead binding, competition bead pull-down, item: LINJ.29.2220",Leishmania donovani extract,10 µM,reference: vehicle,relative abundance,0.9
CC(C)C[C@@H](NC(=O)[C@@H](CCCNC(=N)N)NC(=O)[C@@H](Cc1c[nH]cn1)NC(=O)[C@@H](Cc1c[nH]c2ccccc12)NC(=O)[C@@H](Cc1c[nH]cn1)NC(=O)[C@@H](Cc1ccccc1)NC(=O)[C@H](NC(=O)[C@@H](Cc1ccc(O)cc1)NC(=O)CNC(=O)CNC(=O)CCOCCOCCOCCNC(=O)CN1CCN(CC(=O)O)CCN(CC(=O)O)CC1)[C@H](C)O)C(=O)N[C@H](CC(N)=O)C(=O)N1CCC[C@@H]1C(=O)O [gallium-68 labelled],,gamma counting,"C57BL/6 mice, male, spleen","intravenous, 1.85 MBq, 30 min",,tissue uptake,1.97 ± 0.41 %ID/g
CCCC[C@H]1C(=O)N(C)[C@@H](CCCC)C(=O)N[C@@H](CCCNC(=O)CN2CCN(CC(=O)O)CCN(CC(=O)O)CCN(CC(=O)O)CC2)C(=O)N[C@H](C(=O)NCC(N)=O)CSCC(=O)N[C@@H](Cc2ccc(O)cc2)C(=O)N(C)[C@@H](C)C(=O)N[C@@H](CC(N)=O)C(=O)N2CCC[C@H]2C(=O)N[C@@H](Cc2c[nH]cn2)C(=O)N[C@@H](CC(C)C)C(=O)N(C)CC(=O)N[C@@H](Cc2c[nH]c3ccccc23)C(=O)N[C@@H](CO)C(=O)N[C@@H](Cc2c[nH]c3ccccc23)C(=O)N1C [gallium-68 labelled],,,"NOD/SCID mice, CHO-hPD-L1 xenograft, lung","60 min, atezolizumab 10 mg/kg pretreatment",,tissue uptake,7.58 ± 0.99 %ID/g
C[C@H](O)[C@@H](NC(=O)[C@H]1CCCN1C(=O)[C@@H](CCCCN)NC(=O)[C@@H](CO)NC(=O)[C@@H](Cc1ccc(O)cc1)NC(=O)[C@@H](CC(N)=O)NC(=O)CCOCCOCCOCCNC(=O)CN1CCN(CC(=O)O)CCN(CC(=O)O)CCN(CC(=O)O)CC1)C(=O)N[C@H](CC(=O)O)C(=O)N[C@H](CCCNC(=N)N)C(=O)N[C@H](CCC(N)=O)C(=O)N[C@H](Cc1ccc(O)cc1)C(=O)N[C@H](Cc1c[nH]cn1)C(=O)N[C@H](Cc1ccccc1)C(N)=O [copper-64 labelled],,,"C57BL/6J mice, stomach","intravenous, 1.85 MBq, 1.333 h, radiolabelled",,tissue uptake,0.62 ± 0.24 %ID/g
CSCC[C@H](NC(=O)CNC(=O)[C@H](CCCCN)NC(=O)[C@H](CC(C)C)NC(=O)[C@@H]1CCCN1C(=O)[C@H](CO)NC(=O)[C@H](Cc1c[nH]cn1)NC(=O)[C@H](Cc1c[nH]c2ccccc12)NC(=O)[C@H](CCCNC(=N)N)NC(=O)[C@H](CC(C)C)NC(=O)[C@H](CCCNC(=N)N)NC(=O)[C@H](Cc1c[nH]c2ccccc12)NC(=O)[C@H](CS)NC(=O)CCCCCNC(=O)CN1CCN(CC(=O)O)CCN(CC(=O)O)CCN(CC(=O)O)CC1)C(=O)O [copper-64 labelled],,ex vivo biodistribution,"male C57BL/6J mice, stomach","intravenous, 1.85 MBq, 30 h, B16-F10 tumour-bearing",,tissue uptake,1.66 %ID/g
CC[C@H](C)[C@H](NC(=O)[C@H](CCCNC(=N)N)NC(=O)[C@H](CCCCN)NC(=O)[C@H](Cc1ccc(O)cc1)NC(=O)[C@H](CC(=O)O)NC(=O)[C@H](C)NC(=O)CNC(=O)CCOCCOCCOCCNC(=O)CN1CCN(CC(=O)O)CCN(CC(=O)O)CCN(CC(=O)O)CC1)C(=O)N[C@H](C(=O)N[C@H](C(=O)N[C@@H](CCCCN)C(=O)N[C@H](C(=O)N[C@@H](CC(N)=O)C(N)=O)C(C)C)C(C)C)[C@@H](C)O [copper-64 labelled],,ex vivo gamma counting,"C57BL/6J male mice, B16-F10 tumour, thymus","intravenous, 1.85 MBq, 40 min",,tissue uptake,0.938 ± 0.047 %ID/g
CC(C)(C)C(=O)OCOP(=O)(OCOC(=O)C(C)(C)C)C1CCCN(O)C1=O (stereo not drawn),NCI-H322M,,,,,log GI50,-6.17 log M

# Repeated from above:
SMILES,target or system,test,system,setting,how to read,endpoint,value
CC(C)(C)C(=O)OCOP(=O)(OCOC(=O)C(C)(C)C)C1CCCN(O)C1=O (stereo not drawn),NCI-H322M,,,,,log GI50,-6.17 log M
